Experimental data gathered from unrelated publications.
Each numbered part is a random draw from the data of one study; scales do not carry over between parts.

Study 1 — method: RNA Bind-n-Seq; form: RNA; sample: in vitro; concentration: 1 µM; setting: whole 134-nt RNA, ends assumed; added: 150 mM KCl; reference: input library; reading: higher = stronger binding; quantity: log2 enrichment
Target: Ras GTPase-activating protein-binding protein 1, RRM domain (G3BP1, Homo sapiens, UniProt Q13283)
Chain of UniProt Q13283 (whole entry, looked up): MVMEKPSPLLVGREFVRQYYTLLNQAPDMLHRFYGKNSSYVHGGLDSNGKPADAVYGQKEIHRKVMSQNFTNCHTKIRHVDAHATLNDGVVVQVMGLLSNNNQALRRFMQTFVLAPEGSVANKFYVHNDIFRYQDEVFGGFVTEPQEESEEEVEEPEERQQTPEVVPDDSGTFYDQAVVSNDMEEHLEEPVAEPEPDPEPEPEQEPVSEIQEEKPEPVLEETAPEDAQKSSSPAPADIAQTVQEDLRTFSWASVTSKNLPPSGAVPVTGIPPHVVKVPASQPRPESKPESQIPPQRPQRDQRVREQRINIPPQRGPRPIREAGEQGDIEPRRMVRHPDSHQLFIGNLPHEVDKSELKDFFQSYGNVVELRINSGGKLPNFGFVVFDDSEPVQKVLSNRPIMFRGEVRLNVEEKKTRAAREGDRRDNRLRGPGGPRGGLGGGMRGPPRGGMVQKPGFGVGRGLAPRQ
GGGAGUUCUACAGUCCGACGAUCUUUGCUUGCAGUAUCUGUUUCUCUUCCUAGGCUCAAGUUGGUGACCCAAGCCUAUUGUAAACAAGUGAUUAUCUCAAAGGGAGAUGCCAAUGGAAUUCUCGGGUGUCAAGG: -0.00758
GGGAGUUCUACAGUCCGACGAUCUCAAGUCCUGUGCUACACAUCGUAUGUACCGAAUCGGAAAAAGGUUUUUGGAGGAAAGUAUUAUGUUACGCCGUUCGGAUCUGCACUUCCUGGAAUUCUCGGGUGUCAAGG: -0.204
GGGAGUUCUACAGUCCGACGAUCCAAGUCCUGUGCUACACAUCGUAUGUACCGAAUCGGGAAAGGGGAAAGGAAAGGGAAAGUAUUAUGUUACGCCGUUCGGAUCUGCACUUCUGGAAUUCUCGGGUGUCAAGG: -0.165
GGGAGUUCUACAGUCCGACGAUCAAGUCCUGUGCUACACAUCGUAUGUACCGAAUCGGGAAAAGGAAAAGGAAAAGGGGAAAGUAUUAUGUUACGCCGUUCGGAUCUGCACUUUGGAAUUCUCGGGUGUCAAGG: -0.0681
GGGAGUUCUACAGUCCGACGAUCUAACUUUAGAGGAGGAUCUGAUGGAUAUGGCAGUGGACGUGGAUUUGGGGAUGGCUAUAAUGGGUAUGGAUGAGGACCUGGAGGUGGCAAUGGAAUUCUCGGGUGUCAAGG: -0.237
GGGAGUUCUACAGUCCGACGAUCUCAAGUCCUGUGCUACACAUCGUAUGUACCGAAUCGGAAAAAGGAAAAAGGAGGAAAGUAUUAUGUUACGCCGUUCGGAUCUGCACUUCCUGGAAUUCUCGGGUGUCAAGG: -0.0965
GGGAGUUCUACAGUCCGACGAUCCCUCAAGUCCUGUGCUACACAUCGUAUGUACCGAAUCGGAAAGGAGGAAAGGAAAGUAUUAUGUUACGCCGUUCGGAUCUGCACUUCCAGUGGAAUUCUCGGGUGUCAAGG: -0.159
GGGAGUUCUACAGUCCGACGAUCCACAGACAACACGCACCCACACAGACACAGAGGGAAGGGGUUGGGAUGGGGACAGGGUGCACAGCAGGGCGGGGUAGGACCCCAGCCCAUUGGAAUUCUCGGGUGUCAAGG: -0.337
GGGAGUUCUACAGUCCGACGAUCAGUCCUGUGCUACACAUCGUAUGUACCGAAUCGGAAAGGUUUUUUUGGAAAAAAAGGAAAGUAUUAUGUUACGCCGUUCGGAUCUGCACUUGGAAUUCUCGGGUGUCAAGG: -0.347
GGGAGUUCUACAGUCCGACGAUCGCAGGAAGUAAAAACAAAUGGAAAGGCUUCGGAUAGUGGCAGGGGUGGGGGUUGCUAAGGAAAGGGUGGGAUGGGAGUGGGUAAAGAGUUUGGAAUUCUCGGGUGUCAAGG: 1.24
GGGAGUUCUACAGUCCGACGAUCGCAGGAAGUAAAAACAAAUGGAAAUGCUUCGGAUAGUGGCAGGGGUGGGGGUUGCUAAGGAAAGGGUGGGAUGGGAGUGGGUAAAGAGAUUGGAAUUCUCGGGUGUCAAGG: 1.02
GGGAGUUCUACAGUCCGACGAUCAAGUCCUGUGCUACACAUCGUAUGUACCGAAUCGGCCCCGGGGCCCCGGCCCCGGGGAAAGUAUUAUGUUACGCCGUUCGGAUCUGCACUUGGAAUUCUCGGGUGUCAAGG: -1.12
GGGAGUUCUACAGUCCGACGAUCUCCUGUGCUACACAUCGUAUGUACCGAAUCGGGUUUUUUUGGGAAAAAGGGUUUUUGGGAAAGUAUUAUGUUACGCCGUUCGGAUCUGCAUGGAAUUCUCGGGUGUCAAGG: -0.245
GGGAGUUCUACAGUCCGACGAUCUCAAGUCCUGUGCUACACAUCGUAUGUACCGAAUCGGGAGGGUUUUUGGGAGGGAAAGUAUUAUGUUACGCCGUUCGGAUCUGCACUUCCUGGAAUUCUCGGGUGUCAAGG: 0.619

Study 2 — method: RNA Bind-n-Seq; form: RNA; sample: in vitro; concentration: 365 nM; reference: no-protein control; reading: higher = stronger binding; quantity: RBNS enrichment (R)
Target: RNA binding protein fox-1 homolog 2, RRM domain, GST-SBP tag (RBFOX2, Homo sapiens, UniProt O43251-10, residues 100-194)
Setting: natural RNA segment, single round, ends assumed
Target sequence (chain): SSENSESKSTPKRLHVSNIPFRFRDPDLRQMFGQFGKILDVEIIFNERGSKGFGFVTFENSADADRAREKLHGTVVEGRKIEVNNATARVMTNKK
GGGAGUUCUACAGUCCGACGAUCUCACUUGGCAAAUGUAACGGCUCAGGUACCCUGGCUUCCUUCCCAGAAACAAGCCUUGCCUGUGCAUCCUGGAGAGUUAGGUCCUUCAGAAGGCCAGAGCUGGGACAAGCUGGAAUUCUCGGGUGCCAA: 1.86
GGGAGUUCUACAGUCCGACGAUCAAAAUUUGAAGAAAAAGAGCCACCUCAUAUUCAUAGAGUGUGUAUUUUGUGAGUGUGUGAGCAUUUGAUUGGAAAUAAGAAAGUUAUUAAGUAAAUUUUUCGUUUUACUUUGGAAUUCUCGGGUGCCAA: 0.526
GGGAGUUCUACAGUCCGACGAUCUCCAGGGCUGCCCCUUCCGUUAUCCACCUCAUGAAUCACUGGCUGCAAUAAACAUCGAAGCACAGGAGCCUGUUUCCAGUGAGAGCUUUGCACAGGGCUCUUACCUUUGGUGGAAUUCUCGGGUGCCAA: 0.465
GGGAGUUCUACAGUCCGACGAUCCUGGCAAGGGCAGCCUAGACACCAUGCUGGGGCUGCUGCAGUCCGACCUCAGCCGCCGGGGUGUUCCCACCCAGGCCAAAGGCCUCUGUGGCUCCUGCAAUAAACCUAUUUGGAAUUCUCGGGUGCCAA: 0.222
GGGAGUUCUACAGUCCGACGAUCCAAAAGCGGCAGAUCUUUACUGAAAGAGAGAGCAGCUGUUAUGCAACAUAUAGAAAAAUGUAUAGAUGCUUGGACAGACCCGGUAAUGGGUGGCCAUUGGUAAAUGUUAGUGGAAUUCUCGGGUGCCAA: 1.18
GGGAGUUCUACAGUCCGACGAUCCUGCCUGUGGAACUCACUUCCUGGACUGAUGAGCACGGUCAGCCUCUGUCCCCACUGCAGGUGCUGCUUCUCCUCAGGUGUGGCCUACCUAGGCUCCUGGACCCACACCCUGGAAUUCUCGGGUGCCAA: 0.343
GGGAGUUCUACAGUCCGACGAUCAAGAGCUCCAGCAGGCUACACAGAGAUGCUCAGCCCUCAGCGCUUGCAGGCUUCCCGUCACGUGUCCCUGCUGGAAGGCUAUUCAGUGUUUGUAUUUAUUGUGCCUUACAUGGAAUUCUCGGGUGCCAA: 0.801
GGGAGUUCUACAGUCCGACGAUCAACUAGCAACCCCUUCAAGGACUGAAGAGCUGCCCCAACGGCAUGCUCCAGAUAAUCUUGUCCCUGCUCCUCACUUCCACAGGGGACAUUGUGAGGCCACUGGCAUGGAUUGGAAUUCUCGGGUGCCAA: 2.62
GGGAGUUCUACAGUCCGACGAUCGACCUAAAACACUUUUUAUGUUUGUUAAAAAUAUUUGCUUUUUAAAAUUUAGUUAAAAAUUGAAGUAUUUCUGUCAUAGACAAAAUUACUCUGUUUUAACAUAUUCCUGGUGGAAUUCUCGGGUGCCAA: 1.73
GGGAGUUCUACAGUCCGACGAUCCAAUAUACUCUGAUCUACCCCUUAAUAUUGAAUAAAAGAACCAAGAAGUUCUUUCAGAUCACCAAUAUAAAAUUGUUUCCCAAAUAUAUGUGUUUAUCAAAUUUUGACAGUGGAAUUCUCGGGUGCCAA: 0.518
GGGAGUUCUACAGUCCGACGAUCUUGCCAAAAUACCUUCUGAACUAAGUUGCGUUGUGCUGAGAACACCUAAGCACUAAACUCUCUUGAGAGACUUCUGUUGCUAAGAAGACCGCAGCUUCUGGAGCCAGGGGUGGAAUUCUCGGGUGCCAA: 0.411
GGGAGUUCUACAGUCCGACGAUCGCCUUGAUAAUUAUGAAUUUUUUAUCCAUUACUAACCUUUAAUUUAAUCAAUCAUGUACUUUAGUUUAAUGUAUAAAGAUCCUCUAGAAAAUGAUAAUAUUGUGUAUUAAUGGAAUUCUCGGGUGCCAA: 0.766

Study 3 — method: RNA Bind-n-Seq; form: RNA; sample: in vitro; concentration: 100 nM; reference: input RNA pool; reading: higher = stronger binding; quantity: bound/input enrichment
Target: RING finger protein unkempt homolog, zinc fingers 1-6, SBP tag (UNK, Homo sapiens, UniProt Q9C0B0, residues 30-357)
Chain of UniProt Q9C0B0 (30-357, looked up): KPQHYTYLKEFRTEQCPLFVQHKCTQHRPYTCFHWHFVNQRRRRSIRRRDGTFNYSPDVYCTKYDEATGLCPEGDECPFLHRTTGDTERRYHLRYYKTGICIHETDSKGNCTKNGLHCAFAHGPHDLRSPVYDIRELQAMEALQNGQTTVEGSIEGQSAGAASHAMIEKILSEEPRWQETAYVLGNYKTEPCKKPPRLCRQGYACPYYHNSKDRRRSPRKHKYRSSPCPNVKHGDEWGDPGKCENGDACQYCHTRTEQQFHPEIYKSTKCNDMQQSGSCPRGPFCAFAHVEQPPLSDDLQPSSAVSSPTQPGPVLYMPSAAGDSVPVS
Setting: RNA with constant flanks, vertebrate orthologous sites, ends assumed
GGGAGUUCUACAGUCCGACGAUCUUGGGACCAGCUCUCCAAAUAGGAAUAAUAGUAAAAAAAAUAAGCAAAAUGAUAUUUGUAUAGAAAAAACAGAAGUUAAAUCAUGUAAAGUAAAUGCUGCCAACGUUCCGGGCCCUAAAGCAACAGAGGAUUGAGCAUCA: 4.05 ratio
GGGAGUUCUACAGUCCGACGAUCCUGUUGUGUGAGACAUGUCUAUCCAGAGAAGUAACAUUCUAUAAAUAUUAUCAGAUAAUUUAGCUAGAGUAUUUUUAGGUAUUAAAUUAUAUGUCAAGCAUUUAAAGUGAAUUUGAGAUUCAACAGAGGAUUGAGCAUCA: 0.74 ratio
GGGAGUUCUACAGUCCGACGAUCAGCAAACCAAGGAUUCAGGACUGGUUUUACAAAUGUGCCAAGUAGAUAUGGAACUAACAAUAGAAUUGGACAACCAAGACCAUGAUGUACUGUAAUUUAAUUUAUUUUUAUGAGGAAUAUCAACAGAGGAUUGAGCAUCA: 0.595 ratio
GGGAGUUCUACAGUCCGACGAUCUUGGGACCAACUCUCCAAAUAGGAAUAGUAGUAAAAAAACCAAGCAAAAUGAUACUUGUAUUGAAAAAACAGAUGUUAAAUCAUGUAAAGUAAAUGCUGCCAAUGUUCUAGGCCCUAAAGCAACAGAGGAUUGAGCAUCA: 1 ratio
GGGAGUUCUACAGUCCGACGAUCUUUGAUUUUAUGUGUUUAAAAGGCUUAAGAAACAUUGCUUUAAAAAAGAAGGAAAAAAAGGCAAAUAGAGCAAACUUGUUGAAAUAGAAGAGAGUUUUAGGUAGAGAUGUACUCGCUUUGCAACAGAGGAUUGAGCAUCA: 0.252 ratio
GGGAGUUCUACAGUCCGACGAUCCCUACAAUAAUGAAAACCUACAGGAAUUUUUUUAUUUUUCAUUUUCCCCUUAGGCAUAUUUAGUAUUUUUCCCCCAGGCAGAUCAUUCUGAGUGUGCGAGUGUGUGUGCACAUGUUACAACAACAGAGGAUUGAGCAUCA: 2.5 ratio
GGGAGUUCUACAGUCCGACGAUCCUCACUUCUAGGUUGGACCUAGUGGAAAAGUCAUAGGAAUUGACCAUAUUAAAGAACUAGUAGAUGACUCAAUAAAUAAUGUCAGAAAGGAUGAUCCAAUGCUUUUGUCUUCAGGGAGAGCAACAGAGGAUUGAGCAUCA: 1.05 ratio
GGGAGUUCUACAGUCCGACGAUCUCAGGGACGCUUUGACCUUAAACUCUAUGUCAAGUCAUGACCUCAGCUAUGAAAAUAGCAUUUACUCUGCCCAUUUUAAAAUGUAAUAAUUUAGAGAAAAAAUAUUAAAGUUAAAAAAAACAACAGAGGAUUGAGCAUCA: 0.462 ratio

Study 4 — method: protein-binding microarray; form: hairpin DNA; sample: in vitro; concentration: not given; reference: not given; reading: higher = stronger binding; quantity: median fluorescence; all sequences stand within: GAGGCCAG … CTGGCCTCACACTC
Target: Homeobox protein Hox-C11, full length (HOXC11, Homo sapiens, UniProt O43248, residues 1-304)
Chain of UniProt O43248 (whole entry, looked up): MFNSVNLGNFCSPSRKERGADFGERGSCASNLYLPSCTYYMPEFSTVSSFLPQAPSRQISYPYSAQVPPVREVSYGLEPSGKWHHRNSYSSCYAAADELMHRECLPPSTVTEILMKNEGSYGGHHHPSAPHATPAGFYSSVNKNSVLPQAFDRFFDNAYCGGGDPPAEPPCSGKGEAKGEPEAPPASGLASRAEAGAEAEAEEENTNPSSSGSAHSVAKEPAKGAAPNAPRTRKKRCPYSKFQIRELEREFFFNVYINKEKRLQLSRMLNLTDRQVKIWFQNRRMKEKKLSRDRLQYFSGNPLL
Setting: whole hairpin DNA, median over replicate spots
GTCGTCGAAGCCTCCTGGCTTCGACGAC (5mC at 14 30): 10700 a.u.
GTCGTGAAAGCCTCCTGGCTTTCACGAC: 10800 a.u.
GTCGTAAAAGCCTCCTGGCTTTTACGAC (5mC at 37): 10600 a.u.
CGCGTAAAAGCCTCCTGGCTTTTACGCG (5mC at 9 35): 10100 a.u.
GCCGTAAAAGCCTCCTGGCTTTTACGGC: 9830 a.u.
GTCGCAAAAGCCTCCTGGCTTTTGCGAC (5mC at 13): 10500 a.u.
GTCGTTACGGCCTCCTGGCCGTAACGAC (5mC at 16 28): 10700 a.u.
GTCGTAAACGCCTCCTGGCGTTTACGAC (5mC at 17): 10900 a.u.
GGCGTTAAAGCCTCCTGGCTTTAACGCC: 10100 a.u.
GTCGTAAAAGCCTCCTGGCTTTTACGAC (5mC at 11 33): 10300 a.u.
CGCGTAAAAGCCTCCTGGCTTTTACGCG (5mC at 35): 10600 a.u.
GTCGTTAAAGCCTCCTGGCTTTAACGAC: 10700 a.u.
